Published values of several laboratories.
Each numbered part is a random draw from the data of one study; scales do not carry over between parts. Changes are numbered by the printed parent chain.
UniProt O15294, sequence (whole entry, looked up): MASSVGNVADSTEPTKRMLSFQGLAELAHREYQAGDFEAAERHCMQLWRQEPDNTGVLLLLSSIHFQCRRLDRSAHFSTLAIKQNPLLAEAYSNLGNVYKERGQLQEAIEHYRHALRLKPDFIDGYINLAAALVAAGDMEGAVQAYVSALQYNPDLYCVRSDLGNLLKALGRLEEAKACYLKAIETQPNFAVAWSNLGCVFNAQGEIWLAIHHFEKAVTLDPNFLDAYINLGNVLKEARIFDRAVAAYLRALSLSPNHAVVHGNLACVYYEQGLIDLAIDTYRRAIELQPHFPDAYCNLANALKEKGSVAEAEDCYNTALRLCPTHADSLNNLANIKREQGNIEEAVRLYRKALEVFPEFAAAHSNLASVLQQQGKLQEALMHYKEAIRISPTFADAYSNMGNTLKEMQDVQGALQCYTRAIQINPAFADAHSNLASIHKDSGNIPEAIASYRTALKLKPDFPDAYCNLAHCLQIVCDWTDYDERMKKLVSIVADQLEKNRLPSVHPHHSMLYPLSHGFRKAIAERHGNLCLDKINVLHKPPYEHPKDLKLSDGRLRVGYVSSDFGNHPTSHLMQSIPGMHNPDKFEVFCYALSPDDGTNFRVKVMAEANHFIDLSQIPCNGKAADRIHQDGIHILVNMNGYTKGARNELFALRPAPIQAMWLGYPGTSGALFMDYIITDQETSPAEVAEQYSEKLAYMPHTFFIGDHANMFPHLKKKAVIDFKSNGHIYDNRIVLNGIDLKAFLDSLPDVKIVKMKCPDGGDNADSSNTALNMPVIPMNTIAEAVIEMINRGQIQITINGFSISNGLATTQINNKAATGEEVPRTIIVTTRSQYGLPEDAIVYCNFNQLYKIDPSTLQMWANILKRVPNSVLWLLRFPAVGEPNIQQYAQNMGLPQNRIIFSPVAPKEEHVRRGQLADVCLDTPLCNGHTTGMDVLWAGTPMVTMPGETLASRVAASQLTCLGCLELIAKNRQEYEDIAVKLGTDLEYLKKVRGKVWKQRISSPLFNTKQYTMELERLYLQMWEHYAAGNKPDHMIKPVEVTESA

Series 1
Target: Max-binding protein MNT, bHLH-zipper, MAX partner unstated (MNT, Homo sapiens, UniProt Q99583, residues 220-300)
Technique: protein-binding microarray
Form: double-stranded DNA, one strand shown
Sample: in vitro
Tested at: not given
Setting: k-mer, scored over probes, only values ≥0.25
Reading: higher = stronger binding
Construct (chain): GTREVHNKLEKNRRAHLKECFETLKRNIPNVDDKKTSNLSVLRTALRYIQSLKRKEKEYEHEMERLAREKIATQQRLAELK
For `ATTCATGC`, the E-score was 0.282.
`CACGCCAC` gave an E-score of 0.368.
For `ACATGTTA`, the E-score was 0.336.
`ACGCGGGA` has an E-score of 0.356.
`CCCCTCAC` gave an E-score of 0.272.
`AACGTGGG` gave an E-score of 0.407.
For `CGCGCAAC`, the E-score was 0.266.
For `CACACGCA`, the E-score was 0.33.

Series 2
Target: RNA binding protein fox-1 homolog 2, RRM domain, GST-SBP tag (RBFOX2, Homo sapiens, UniProt O43251-10, residues 100-194)
Technique: RNA Bind-n-Seq
Form: RNA
Sample: in vitro
Tested at: 365 nM
Setting: natural RNA segment, single round, ends assumed
Baseline: no-protein control
Reading: higher = stronger binding
Target sequence (chain): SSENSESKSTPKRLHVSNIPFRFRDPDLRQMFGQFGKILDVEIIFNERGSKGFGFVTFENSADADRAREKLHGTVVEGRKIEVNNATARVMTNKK
For `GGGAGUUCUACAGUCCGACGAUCGCACACAUCAUCUGUAAGCUGUUUGGUUUUAAAAUACUGUAGAUAAUUAACCAAGGUAGAAUGACCUUGUAAUGUAACUGCUCUUGGGCAAUAUUCUCUGUACAUAUUAGUGGAAUUCUCGGGUGCCAA`, “RBNS enrichment (R)” read 1.25.
Under “RBNS enrichment (R)”, `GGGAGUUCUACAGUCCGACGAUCUAUUAGUAUCUUCUCAGAUACAGACCGUUUUAUGAUUUUUUAAAAAGUAAAAGUUCUAAAAUGAAGUCACACAGGACAAUUAUUCUUAUGCCUAAGUUAACAGUGGAUAAUGGAAUUCUCGGGUGCCAA` is recorded as 0.373.
`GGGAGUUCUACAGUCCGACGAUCAUUUGAGACAAAUAGUCGGAUUAGAAAUAAAGCAUCUCAUUUUGAGUAGAGAGCAAGGGAAGUGGUUCUUAGAUGGUGAUCUGGGAUUAGGCCCUCAAGACCCUUUUGGGUGGAAUUCUCGGGUGCCAA` — result for “RBNS enrichment (R)”: 1.11.
Under “RBNS enrichment (R)”, `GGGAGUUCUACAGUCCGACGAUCAGACGUCCCCGUGAGCCCGAGGCUGGAAGUGGUGUCUGCCUUCAAGGGUUAAUCCCUCUUUGUUCCAAGCAGAAGCAUUCUGGCAUCCCAGUGAAGAGCUCAGGCCCUCAUGGAAUUCUCGGGUGCCAA` is recorded as 0.187.
`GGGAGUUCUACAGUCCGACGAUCUCCCCUCCCAGGGGAGCCAGCUGCUUGACCUAGCUCUUUGGGCCUCUCCUGCCCUCUGCUCUGCCUGGAGUGUCGGAUCCUGUGAGUAGGCUGGGCCUCCCCUGGGCAGGUGGAAUUCUCGGGUGCCAA`: “RBNS enrichment (R)” 0.469.
Under “RBNS enrichment (R)”, `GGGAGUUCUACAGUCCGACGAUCAAUGAGCUGACUGUCUAUUUUAAACUCGAAGGUAAAAAAAUGUAUAUUAUAUUUUUUCACUAUAGGUACAUGUAACAGUAAAACGUGUAACAGCAAAGUAUAUAUUUGAUUGGAAUUCUCGGGUGCCAA` is recorded as 0.513.
`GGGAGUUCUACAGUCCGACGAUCACUAGGGUGCUCACCCCUCAAGAUUGAUUCCCUGUCUUUCCCUCUGGGGCACCGCACUUUGUAAAGGGUGAUGGUGGACCCCUUCCCUUACUUUCAGGUCUGGAGUCUUCUGGAAUUCUCGGGUGCCAA`: “RBNS enrichment (R)” 0.287.
For `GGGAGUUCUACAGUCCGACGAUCAAGAAUGUGGAGGGAAAGAACAAGGCUGGAGGCCGGAGCAAGUGAGGACUAAGCAAGGGAAGGGAGGACCGAUUGCCAUCGGCCUUCAUGCUCUGGUUAGGGUGAGGUUGUGGAAUUCUCGGGUGCCAA`, “RBNS enrichment (R)” read 1.71.

Single results of other studies
P1: viral docking peptide; YKVKRRLVFGADD; partner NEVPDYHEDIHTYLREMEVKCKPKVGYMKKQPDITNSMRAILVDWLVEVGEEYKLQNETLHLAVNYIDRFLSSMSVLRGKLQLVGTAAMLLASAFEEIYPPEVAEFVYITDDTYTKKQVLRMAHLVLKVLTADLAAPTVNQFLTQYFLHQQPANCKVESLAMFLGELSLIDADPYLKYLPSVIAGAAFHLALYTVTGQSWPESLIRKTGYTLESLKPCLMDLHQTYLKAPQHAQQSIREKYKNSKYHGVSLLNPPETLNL
Under “enrichment fold change”, `WTDHGGNIIHTHHH` is recorded as 54.9 (OGT (Homo sapiens, UniProt O15294); binding, phage display NGS; peptide; concentration not given; baseline: input library).
`P1 K4C` — result for “normalised enrichment score”: 5.61 (CCNA2, cyclin fold, Cln2 fusion (human); yeast growth competition, sequencing; yeast; strong parent motif; baseline: not given, higher = stronger binding).

For quick reference, copied from above (series 2):
Under “RBNS enrichment (R)”, `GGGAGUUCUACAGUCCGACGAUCAAUGAGCUGACUGUCUAUUUUAAACUCGAAGGUAAAAAAAUGUAUAUUAUAUUUUUUCACUAUAGGUACAUGUAACAGUAAAACGUGUAACAGCAAAGUAUAUAUUUGAUUGGAAUUCUCGGGUGCCAA` is recorded as 0.513.
`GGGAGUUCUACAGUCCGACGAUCACUAGGGUGCUCACCCCUCAAGAUUGAUUCCCUGUCUUUCCCUCUGGGGCACCGCACUUUGUAAAGGGUGAUGGUGGACCCCUUCCCUUACUUUCAGGUCUGGAGUCUUCUGGAAUUCUCGGGUGCCAA`: “RBNS enrichment (R)” 0.287.
